Assay results from different studies.
Compare with care: the assays were run in different laboratories. Numbers after ± are the reported error.
Cereblon/Ikaros: Cereblon/Ikaros (Homo sapiens, UniProt Q13422+Q96SW2)
IDE: Insulin-degrading enzyme (IDE, Homo sapiens, UniProt P14735)
USP33 ZnF-UBD domain: Ubiquitin carboxyl-terminal hydrolase 33, ZnF-UBD domain (USP33, Homo sapiens, UniProt Q8TEY7)
Chain of UniProt Q8TEY7 (whole entry, looked up): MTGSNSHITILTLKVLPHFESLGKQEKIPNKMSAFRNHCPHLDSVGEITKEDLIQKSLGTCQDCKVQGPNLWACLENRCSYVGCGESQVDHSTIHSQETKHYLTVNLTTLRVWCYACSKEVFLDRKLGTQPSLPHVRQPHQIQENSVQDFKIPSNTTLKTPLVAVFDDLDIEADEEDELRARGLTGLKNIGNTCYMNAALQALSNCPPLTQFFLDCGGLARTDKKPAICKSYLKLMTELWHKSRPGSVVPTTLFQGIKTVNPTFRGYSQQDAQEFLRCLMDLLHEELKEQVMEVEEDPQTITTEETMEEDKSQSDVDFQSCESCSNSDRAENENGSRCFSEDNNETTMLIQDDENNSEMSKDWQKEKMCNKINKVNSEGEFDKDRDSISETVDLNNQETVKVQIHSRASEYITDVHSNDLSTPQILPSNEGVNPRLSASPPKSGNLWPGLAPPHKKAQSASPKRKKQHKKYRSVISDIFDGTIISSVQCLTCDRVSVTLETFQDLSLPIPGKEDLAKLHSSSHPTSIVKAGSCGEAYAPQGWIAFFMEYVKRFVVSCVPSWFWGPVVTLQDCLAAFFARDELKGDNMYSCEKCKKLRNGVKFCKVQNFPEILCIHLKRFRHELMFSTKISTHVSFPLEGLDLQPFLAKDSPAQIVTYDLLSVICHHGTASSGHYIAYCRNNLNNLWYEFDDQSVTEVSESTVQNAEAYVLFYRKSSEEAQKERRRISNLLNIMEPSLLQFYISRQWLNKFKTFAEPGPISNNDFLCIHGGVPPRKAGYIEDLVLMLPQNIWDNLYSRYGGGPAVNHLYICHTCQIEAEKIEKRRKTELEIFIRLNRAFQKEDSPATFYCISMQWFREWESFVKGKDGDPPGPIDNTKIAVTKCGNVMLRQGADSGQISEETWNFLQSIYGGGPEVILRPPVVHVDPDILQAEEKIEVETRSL
Chain of UniProt Q13336 (whole entry, looked up): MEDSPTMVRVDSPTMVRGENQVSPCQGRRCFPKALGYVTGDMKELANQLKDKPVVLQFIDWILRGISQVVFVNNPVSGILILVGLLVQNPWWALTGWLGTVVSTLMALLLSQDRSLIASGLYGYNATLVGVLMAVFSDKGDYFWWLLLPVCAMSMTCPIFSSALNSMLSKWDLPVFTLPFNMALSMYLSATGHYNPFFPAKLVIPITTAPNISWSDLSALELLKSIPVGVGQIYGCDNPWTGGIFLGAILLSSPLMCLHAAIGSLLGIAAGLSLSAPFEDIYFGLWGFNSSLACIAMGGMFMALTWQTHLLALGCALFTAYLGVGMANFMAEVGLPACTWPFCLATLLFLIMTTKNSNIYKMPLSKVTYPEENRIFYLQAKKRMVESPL
Chain of UniProt P39146 (whole entry, unmodified, looked up): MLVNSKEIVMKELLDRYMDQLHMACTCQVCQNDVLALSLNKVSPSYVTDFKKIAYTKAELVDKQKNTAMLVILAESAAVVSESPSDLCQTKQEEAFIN

SMILES	tested on	test	test system	setting	endpoint	result
O=C1CCC(N2C(=O)C=C(Nc3cccc(C4(NCCc5ccc(Cl)c(C(F)(F)F)c5)CCC4)c3)C2=O)C(=O)N1 (stereo not drawn)	Cereblon/Ikaros	degrader	human cells		DC50	30 ± 3 nM
Cc1cc(S(=O)(=O)N2CCCCN3[C@H](CO)[C@@H](c4ccc(-c5cccc(C)c5C)cc4)[C@@H]3C2)n(C)n1	IDE	enzyme activity, inhibitor, fluorescence kinetic		added: Mca-RPPGFSAFK(Dnp)-OH substrate	EC50	24 nM
O=C(O)CCOc1ccccc1	USP33 ZnF-UBD domain				Kd	0.724 mM
NS(=O)(=O)c1nnc(NC(=O)COC2CCCCC2)s1	Enterococcus faecium γ-carbonic anhydrase	CO2 hydration, inhibitor, stopped-flow kinetics			Ki	0.284 µM
CC1=CC(=O)CC(C)(C)[C@@]1(O)/C=C/C(C)=C\C(=O)O	HBL-1			0.1 µM, 120 h	viability	53.7%
Cc1ccccc1-c1ccc([C@H]2[C@@H](CO)N3CCCCN(Cc4cccnc4)C[C@H]23)cc1	IDE	enzyme activity, inhibitor, fluorogenic kinetic		added: Mca-RPPGFSAFK(Dnp)-OH substrate	EC50	4800 nM
CC(=O)Nc1ccccc1	Urea transporter 1 (Homo sapiens, UniProt Q13336)	urea transport inhibition		added: thiourea	Ki	4000 µM
COc1cccc(C#Cc2ccc([C@@H]3[C@H](CO)N4C(=O)CN(C(C)=O)C[C@@H]34)cc2)c1	IDE	enzyme activity, inhibitor, fluorogenic kinetic		added: Mca-RPPGFSAFK(Dnp)-OH substrate	EC50	3700 nM
Cc1cccc(CC(=O)Nc2nnc(S(N)(=O)=O)s2)c1	Enterococcus faecium γ-carbonic anhydrase	CO2 hydration, inhibitor, stopped-flow kinetics			Ki	0.11 µM
O=C1CCC(N2Cc3cc(NC(=O)c4cccc(C(F)(F)F)c4)ccc3C2=O)C(=O)N1 (stereo not drawn)	Cereblon/Ikaros	degrader, live-cell HiBiT kinetic	Jurkat Ikaros-HiBiT LgBiT		DC50	> 10000 nM
O=C(O)CNC(=O)c1ccc(S(=O)(=O)N2CCC(n3c(=O)oc4ccccc43)CC2)cc1	USP33 ZnF-UBD domain				Kd	> 1 mM
NS(=O)(=O)c1nnc(NC(=O)CCc2ccc(F)cc2)s1	Enterococcus faecium γ-carbonic anhydrase	CO2 hydration, inhibitor, stopped-flow kinetics			Ki	0.0768 µM
CCC(C)(NCCc1ccccc1)c1cccc(NC2=CC(=O)N(C3CCC(=O)NC3=O)C2=O)c1 (stereo not drawn)	Cereblon/Ikaros	degrader, HiBiT luminescence, item: endogenous HiBiT-tagged protein			DC50	120 ± 28 nM
O=C(O)CCC(=O)c1cccs1	USP33 ZnF-UBD domain				Kd	> 1 mM
Cc1ccc(CCC(=O)Nc2nnc(S(N)(=O)=O)s2)cc1	Enterococcus faecium γ-carbonic anhydrase	CO2 hydration, inhibitor, stopped-flow kinetics			Ki	0.0623 µM
CCC(C)(NCCc1ccc(OC)c(Cl)c1)c1cccc(NC2=CC(=O)N(C3CCC(=O)NC3=O)C2=O)c1 (stereo not drawn)	Cereblon/Ikaros	degrader, HiBiT	Jurkat	5 h	DC50	20 ± 2 nM
Nc1nc2c(ncn2[C@@H]2O[C@@H]3CO[P@](=O)(O)O[C@H]4[C@@H](O)[C@H](n5cnc6c(=O)[nH]c(N)nc65)O[C@@H]4CO[P@](=O)(O)O[C@H]3[C@H]2O)c(=O)[nH]1	Competence protein ComFB (comFB, Bacillus subtilis, UniProt P39146, K41A)				Kd	0.00045 ± 0.0001 mM
O=C(O)CCn1ccccc1=O	USP33 ZnF-UBD domain				Kd	> 1 mM

SMILES	tested on	test	test system	setting	endpoint	result
NS(=O)(=O)c1nnc(NC(=O)CN2CCC(F)CC2)s1	Enterococcus faecium γ-carbonic anhydrase	CO2 hydration, inhibitor, stopped-flow kinetics			Ki	0.0744 µM
Cc1ccccc1S(=O)(=O)N1CCCCN2[C@H](CO)[C@@H](c3ccc(-c4cccc(F)c4)cc3)[C@@H]2C1	IDE	enzyme activity, inhibitor, fluorescence kinetic		added: Mca-RPPGFSAFK(Dnp)-OH substrate	EC50	1200 nM
O=C(O)Cn1cnc2c(oc3ccccc32)c1=O	USP33 ZnF-UBD domain				Kd	> 1 mM
O=C1CCC(N2C(=O)c3cccc4c(Cc5cnn(C6CCN(C(=O)C7(O)CCC7)CC6)c5)ccc2c34)C(=O)N1 (stereo not drawn)	Cereblon/Ikaros	protein degradation, degrader, immunoblot	human PBMC	24 h	DC50	< 0.05 nM
O=C1CCC(N2Cc3cc(NC(=O)C4CCCCC4)ccc3C2=O)C(=O)N1 (stereo not drawn)	Cereblon/Ikaros	degrader, live-cell HiBiT kinetic	Jurkat Ikaros-HiBiT LgBiT		DC50	> 10000 nM
Cc1ccccc1CCC(=O)Nc1nnc(S(N)(=O)=O)s1	Enterococcus faecium γ-carbonic anhydrase	CO2 hydration, inhibitor, stopped-flow kinetics			Ki	0.0584 µM
Cc1ccccc1-c1ccc([C@@H]2[C@H]3CN(S(=O)(=O)c4cn(C)cn4)CCCCN3[C@H]2CO)cc1	IDE	enzyme activity, inhibitor, fluorogenic kinetic		added: Mca-RPPGFSAFK(Dnp)-OH substrate	EC50	1700 nM
Cc1cccc(C(=O)Nc2ccc3c(c2)CN(C2CCC(=O)NC2=O)C3=O)c1 (stereo not drawn)	Cereblon/Ikaros	degrader, live-cell HiBiT kinetic	Jurkat Ikaros-HiBiT LgBiT		DC50	> 10000 nM
Cc1cccc(-c2ccc([C@@H]3[C@@H](CO)N4CCCCN(C(=O)NC(C)C)C[C@@H]34)cc2)c1	IDE	enzyme activity, inhibitor, fluorogenic kinetic		added: Mca-RPPGFSAFK(Dnp)-OH substrate	EC50	6200 nM
O=C(O)CCC(=O)N1CCc2ccccc21	USP33 ZnF-UBD domain				Kd	> 1 mM
Nc1ncnc2c1ncn2[C@@H]1O[C@H](COP(=O)(O)OP(=O)(O)O)[C@@H](O)[C@H]1O	klp-6 (Caenorhabditis elegans, UniProt G5EFQ4, I117M/S116T/V118M)	microtubule gliding velocity, competitive inhibitor, single-molecule TIRF		pH 7.4, added: Mg-ATP varied, porcine microtubules	Ki	11.9 ± 0.3 µM
NS(=O)(=O)c1nnc(NC(=O)C2CC23CCOCC3)s1 (stereo not drawn)	Enterococcus faecium γ-carbonic anhydrase	CO2 hydration, inhibitor, stopped-flow kinetics			Ki	0.215 µM
O=C(O)CN1Cc2ccccc2C1=O	USP33 ZnF-UBD domain				Kd	> 1 mM
COc1cccc(-c2ccc([C@@H]3[C@@H](CO)N4CCCCN(S(=O)(=O)c5ccccc5C)C[C@@H]34)cc2)c1	IDE	enzyme activity, inhibitor, fluorescence kinetic		added: Mca-RPPGFSAFK(Dnp)-OH substrate	EC50	490 nM
N#C/C(=C\c1ccc(-c2cc(Cl)ccc2Cl)o1)C(=O)Nc1cccc2ncccc12	HBL-1			1 µM, 120 h	viability	98.9%
C[C@H]1CCC[C@@H](C(=O)Nc2nnc(S(N)(=O)=O)s2)C1 (racemic)	Enterococcus faecium γ-carbonic anhydrase	CO2 hydration, inhibitor, stopped-flow kinetics			Ki	0.131 µM
Cc1cccc(-c2ccc([C@@H]3[C@@H](CO)N4CCCCN(C(=O)c5ccncc5)C[C@@H]34)cc2)c1	IDE	enzyme activity, inhibitor, fluorogenic kinetic		added: Mca-RPPGFSAFK(Dnp)-OH substrate	EC50	16500 nM
O=C1CCC(N2C(=O)C=C(Nc3cccc(S(=O)(=O)NCCc4ccc(C(F)(F)F)c(Cl)c4)c3)C2=O)C(=O)N1 (stereo not drawn)	Cereblon/Ikaros	degrader, HiBiT luminescence, item: endogenous HiBiT-tagged protein			DC50	9900 ± 2500 nM

For quick reference, copied from above:
SMILES	tested on	test	test system	setting	endpoint	result
C[C@H]1CCC[C@@H](C(=O)Nc2nnc(S(N)(=O)=O)s2)C1 (racemic)	Enterococcus faecium γ-carbonic anhydrase	CO2 hydration, inhibitor, stopped-flow kinetics			Ki	0.131 µM
NS(=O)(=O)c1nnc(NC(=O)CN2CCC(F)CC2)s1	Enterococcus faecium γ-carbonic anhydrase	CO2 hydration, inhibitor, stopped-flow kinetics			Ki	0.0744 µM
COc1cccc(-c2ccc([C@@H]3[C@@H](CO)N4CCCCN(S(=O)(=O)c5ccccc5C)C[C@@H]34)cc2)c1	IDE	enzyme activity, inhibitor, fluorescence kinetic		added: Mca-RPPGFSAFK(Dnp)-OH substrate	EC50	490 nM
Cc1cccc(-c2ccc([C@@H]3[C@@H](CO)N4CCCCN(C(=O)NC(C)C)C[C@@H]34)cc2)c1	IDE	enzyme activity, inhibitor, fluorogenic kinetic		added: Mca-RPPGFSAFK(Dnp)-OH substrate	EC50	6200 nM
